# Results from different studies.
# Numbered parts are unrelated; each lists some results of a single study. “And” joins repeats or separate records; there may be more than shown.
# UniProt P42336, sequence (whole entry, unmodified, looked up): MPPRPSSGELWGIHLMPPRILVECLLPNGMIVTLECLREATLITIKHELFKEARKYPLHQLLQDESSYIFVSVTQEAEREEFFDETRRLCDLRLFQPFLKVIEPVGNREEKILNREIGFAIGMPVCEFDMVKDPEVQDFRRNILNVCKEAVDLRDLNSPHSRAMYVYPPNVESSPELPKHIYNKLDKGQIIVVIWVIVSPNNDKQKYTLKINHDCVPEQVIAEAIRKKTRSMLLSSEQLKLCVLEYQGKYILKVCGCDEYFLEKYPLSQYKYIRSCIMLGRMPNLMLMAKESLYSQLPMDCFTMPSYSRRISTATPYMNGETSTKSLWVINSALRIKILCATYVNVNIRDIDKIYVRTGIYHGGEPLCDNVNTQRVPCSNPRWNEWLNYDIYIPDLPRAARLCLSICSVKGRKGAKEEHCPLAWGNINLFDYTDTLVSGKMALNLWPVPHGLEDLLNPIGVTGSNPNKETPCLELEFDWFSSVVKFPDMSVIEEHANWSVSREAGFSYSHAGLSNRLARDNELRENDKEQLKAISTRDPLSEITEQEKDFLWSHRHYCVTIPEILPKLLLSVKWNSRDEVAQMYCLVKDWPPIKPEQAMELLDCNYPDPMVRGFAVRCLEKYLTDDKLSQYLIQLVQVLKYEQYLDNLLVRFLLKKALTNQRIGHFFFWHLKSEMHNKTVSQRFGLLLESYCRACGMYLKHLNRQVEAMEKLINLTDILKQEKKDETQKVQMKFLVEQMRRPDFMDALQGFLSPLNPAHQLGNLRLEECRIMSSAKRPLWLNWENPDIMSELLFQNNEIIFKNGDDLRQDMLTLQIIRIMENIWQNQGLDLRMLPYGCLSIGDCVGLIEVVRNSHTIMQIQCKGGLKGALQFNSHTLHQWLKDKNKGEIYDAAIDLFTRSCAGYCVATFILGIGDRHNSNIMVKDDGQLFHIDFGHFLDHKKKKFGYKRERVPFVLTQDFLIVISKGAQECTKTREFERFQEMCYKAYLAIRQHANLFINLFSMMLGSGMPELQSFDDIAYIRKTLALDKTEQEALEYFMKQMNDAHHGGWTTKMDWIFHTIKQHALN
# UniProt P10721, sequence (whole entry, unmodified, looked up): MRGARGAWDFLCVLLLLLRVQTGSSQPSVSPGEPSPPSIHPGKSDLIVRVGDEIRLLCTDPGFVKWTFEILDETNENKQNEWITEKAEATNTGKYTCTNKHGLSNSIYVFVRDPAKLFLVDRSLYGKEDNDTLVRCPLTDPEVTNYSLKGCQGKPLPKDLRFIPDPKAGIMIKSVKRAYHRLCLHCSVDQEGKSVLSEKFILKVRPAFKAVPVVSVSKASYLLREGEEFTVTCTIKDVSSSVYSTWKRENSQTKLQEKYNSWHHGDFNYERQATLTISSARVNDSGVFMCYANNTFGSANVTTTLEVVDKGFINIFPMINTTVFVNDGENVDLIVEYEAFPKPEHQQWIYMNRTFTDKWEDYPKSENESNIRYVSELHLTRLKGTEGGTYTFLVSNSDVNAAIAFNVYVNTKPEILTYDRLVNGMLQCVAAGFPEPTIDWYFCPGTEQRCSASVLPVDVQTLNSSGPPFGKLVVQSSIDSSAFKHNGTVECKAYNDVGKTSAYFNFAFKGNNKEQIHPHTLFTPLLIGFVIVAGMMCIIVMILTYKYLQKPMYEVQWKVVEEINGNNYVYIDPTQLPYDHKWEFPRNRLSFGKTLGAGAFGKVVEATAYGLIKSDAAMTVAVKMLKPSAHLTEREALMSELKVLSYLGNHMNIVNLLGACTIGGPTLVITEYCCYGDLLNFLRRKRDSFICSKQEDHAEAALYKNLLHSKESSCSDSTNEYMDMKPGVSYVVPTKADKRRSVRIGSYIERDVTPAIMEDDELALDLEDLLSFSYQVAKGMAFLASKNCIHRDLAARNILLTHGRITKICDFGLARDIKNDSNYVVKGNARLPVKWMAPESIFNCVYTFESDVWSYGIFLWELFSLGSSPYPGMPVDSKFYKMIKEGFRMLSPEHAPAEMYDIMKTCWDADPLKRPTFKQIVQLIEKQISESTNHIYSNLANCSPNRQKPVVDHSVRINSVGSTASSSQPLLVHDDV
# UniProt O14733, sequence (whole entry, looked up): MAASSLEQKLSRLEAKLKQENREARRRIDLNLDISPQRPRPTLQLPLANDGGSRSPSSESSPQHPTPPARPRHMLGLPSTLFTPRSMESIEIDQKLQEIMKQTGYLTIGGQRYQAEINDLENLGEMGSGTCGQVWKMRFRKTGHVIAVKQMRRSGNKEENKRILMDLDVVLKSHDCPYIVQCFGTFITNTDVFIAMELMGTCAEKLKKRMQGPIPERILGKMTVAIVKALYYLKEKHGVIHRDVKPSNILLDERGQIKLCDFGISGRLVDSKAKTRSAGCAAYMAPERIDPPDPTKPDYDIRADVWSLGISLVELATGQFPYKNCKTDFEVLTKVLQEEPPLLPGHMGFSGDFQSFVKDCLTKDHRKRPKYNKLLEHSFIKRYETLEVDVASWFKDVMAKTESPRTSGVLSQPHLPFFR
# UniProt O00329, sequence (whole entry, looked up): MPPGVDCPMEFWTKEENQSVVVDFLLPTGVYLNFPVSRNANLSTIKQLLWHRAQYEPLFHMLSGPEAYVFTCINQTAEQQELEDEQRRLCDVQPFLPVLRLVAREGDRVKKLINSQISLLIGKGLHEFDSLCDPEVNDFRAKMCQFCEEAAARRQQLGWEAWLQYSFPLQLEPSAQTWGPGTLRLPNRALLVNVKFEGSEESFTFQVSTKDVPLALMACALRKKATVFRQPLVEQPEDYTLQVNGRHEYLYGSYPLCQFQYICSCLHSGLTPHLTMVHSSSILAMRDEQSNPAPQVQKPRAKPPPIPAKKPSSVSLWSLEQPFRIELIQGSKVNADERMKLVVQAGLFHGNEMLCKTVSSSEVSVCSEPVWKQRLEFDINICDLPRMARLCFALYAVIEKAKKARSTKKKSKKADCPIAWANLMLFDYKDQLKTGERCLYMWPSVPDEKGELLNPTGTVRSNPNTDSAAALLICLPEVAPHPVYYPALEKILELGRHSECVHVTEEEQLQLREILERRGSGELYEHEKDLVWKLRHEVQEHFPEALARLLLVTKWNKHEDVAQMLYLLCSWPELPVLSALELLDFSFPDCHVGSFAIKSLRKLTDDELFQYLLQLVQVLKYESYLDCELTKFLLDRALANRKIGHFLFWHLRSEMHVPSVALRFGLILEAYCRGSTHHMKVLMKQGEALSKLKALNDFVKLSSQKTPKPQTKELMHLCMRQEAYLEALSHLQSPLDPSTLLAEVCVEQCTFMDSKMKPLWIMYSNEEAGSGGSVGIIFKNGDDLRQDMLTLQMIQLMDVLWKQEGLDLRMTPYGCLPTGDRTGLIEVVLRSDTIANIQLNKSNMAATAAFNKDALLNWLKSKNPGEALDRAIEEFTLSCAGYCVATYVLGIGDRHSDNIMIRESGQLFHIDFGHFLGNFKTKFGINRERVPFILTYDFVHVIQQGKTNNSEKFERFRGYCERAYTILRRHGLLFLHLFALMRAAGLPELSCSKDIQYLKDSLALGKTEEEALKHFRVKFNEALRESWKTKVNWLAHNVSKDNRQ
# UniProt P42338, sequence (whole entry, looked up): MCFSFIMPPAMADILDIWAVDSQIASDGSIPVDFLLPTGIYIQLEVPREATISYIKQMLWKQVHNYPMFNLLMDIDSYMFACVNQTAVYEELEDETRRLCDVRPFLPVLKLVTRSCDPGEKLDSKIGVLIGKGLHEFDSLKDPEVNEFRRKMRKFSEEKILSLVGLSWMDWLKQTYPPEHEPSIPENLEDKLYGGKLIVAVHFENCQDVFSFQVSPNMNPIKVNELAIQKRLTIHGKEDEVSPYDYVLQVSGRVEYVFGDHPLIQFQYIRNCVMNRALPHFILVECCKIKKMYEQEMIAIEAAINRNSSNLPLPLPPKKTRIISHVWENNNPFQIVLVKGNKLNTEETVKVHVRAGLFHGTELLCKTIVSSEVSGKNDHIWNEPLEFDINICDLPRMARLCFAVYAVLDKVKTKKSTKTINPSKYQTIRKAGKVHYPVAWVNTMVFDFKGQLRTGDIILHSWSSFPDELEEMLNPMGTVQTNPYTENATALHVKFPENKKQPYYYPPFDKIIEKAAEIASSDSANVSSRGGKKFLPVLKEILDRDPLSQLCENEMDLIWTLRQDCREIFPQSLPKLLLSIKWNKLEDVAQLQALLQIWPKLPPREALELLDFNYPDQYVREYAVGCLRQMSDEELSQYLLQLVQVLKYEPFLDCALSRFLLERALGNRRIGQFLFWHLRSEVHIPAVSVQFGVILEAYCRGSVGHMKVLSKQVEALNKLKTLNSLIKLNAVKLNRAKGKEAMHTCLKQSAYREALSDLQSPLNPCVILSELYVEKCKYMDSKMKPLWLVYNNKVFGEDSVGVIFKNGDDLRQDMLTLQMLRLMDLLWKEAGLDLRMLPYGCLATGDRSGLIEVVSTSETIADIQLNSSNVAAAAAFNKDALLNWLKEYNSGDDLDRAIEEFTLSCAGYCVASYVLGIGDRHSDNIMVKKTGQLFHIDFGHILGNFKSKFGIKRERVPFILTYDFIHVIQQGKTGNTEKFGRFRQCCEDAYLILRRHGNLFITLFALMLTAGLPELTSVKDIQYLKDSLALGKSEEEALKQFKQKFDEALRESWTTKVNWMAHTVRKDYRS
# UniProt Q96BR1, sequence (whole entry, looked up): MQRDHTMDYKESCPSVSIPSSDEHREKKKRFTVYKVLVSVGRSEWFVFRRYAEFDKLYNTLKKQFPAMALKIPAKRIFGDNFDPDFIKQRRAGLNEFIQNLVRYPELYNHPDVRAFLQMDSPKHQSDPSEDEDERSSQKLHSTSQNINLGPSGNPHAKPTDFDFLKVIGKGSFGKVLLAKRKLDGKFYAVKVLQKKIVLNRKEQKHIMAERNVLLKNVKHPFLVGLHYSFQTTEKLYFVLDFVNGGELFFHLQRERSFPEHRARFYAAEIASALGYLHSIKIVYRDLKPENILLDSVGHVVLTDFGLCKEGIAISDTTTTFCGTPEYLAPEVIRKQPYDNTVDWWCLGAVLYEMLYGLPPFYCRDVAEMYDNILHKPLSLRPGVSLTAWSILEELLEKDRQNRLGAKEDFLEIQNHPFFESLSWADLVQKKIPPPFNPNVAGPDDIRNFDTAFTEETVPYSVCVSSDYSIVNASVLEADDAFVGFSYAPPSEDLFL

# Set 1 — concentration: 1 µM
# Structure (SMILES): C=CC(=O)N1CCC([C@@H]2CCNc3c(C(N)=O)c(-c4ccc(Oc5ccccc5)cc4)nn32)CC1
target,assay,inhibition
"TAOK3 (Homo sapiens, UniProt Q9H2K8)","enzyme activity, inhibitor",19%
"MAP3K20 (Homo sapiens, UniProt Q9NYL2)","enzyme activity, inhibitor",17%
"MAP3K10 (Homo sapiens, UniProt Q02779)","enzyme activity, inhibitor",24%
"PIK3CA (Homo sapiens, UniProt P42336, H1047L)","enzyme activity, inhibitor",11%
"ERN1 (Homo sapiens, UniProt O75460)","enzyme activity, inhibitor",25%
"PIK3CA (Homo sapiens, UniProt P42336, E545K)","enzyme activity, inhibitor",35%
"PIK3CB (Homo sapiens, UniProt P42338)","enzyme activity, inhibitor",6%
"MINK1 (Homo sapiens, UniProt Q8N4C8)","enzyme activity, inhibitor",53%
"ERBB4 (Homo sapiens, UniProt Q15303)","enzyme activity, inhibitor",100%
"Myosin-IIIa (MYO3A, Homo sapiens, UniProt Q8NEV4)",cell-free assay,34%

# Set 2 — effect on: cell-free assay; technique: competition with immobilised ligand; concentration: 1 µM
# Compound: N#CC1(c2ccccn2)CCN(Cc2cc(C(=O)N3CCCC3)c(=O)n3ccccc23)CC1
target,remaining binding [%]
"BMX (Homo sapiens, UniProt P51813)",84
"KIT (Homo sapiens, UniProt P10721, V559D/V654A)",100
"PIK3CA (Homo sapiens, UniProt P42336, H1047Y)",64
"PIK3CD (Homo sapiens, UniProt O00329)",61
"PKN1 (Homo sapiens, UniProt Q16512)",91
"CSNK1A1 (Homo sapiens, UniProt P48729)",79
"TAOK1 (Homo sapiens, UniProt Q7L7X3)",100
"MAP2K7 (Homo sapiens, UniProt O14733)",100
"EGFR (Homo sapiens, UniProt P00533, G719S)",100
"TNK1 (Homo sapiens, UniProt Q13470)",72
"KIT (Homo sapiens, UniProt P10721, L576P)",100
"MAP3K14 (Homo sapiens, UniProt Q99558)",100
"EGFR (Homo sapiens, UniProt P00533, del752-759)",81
"MET (Homo sapiens, UniProt P08581)",95
"DDR1 (Homo sapiens, UniProt Q08345)",85
"RAF1 (Homo sapiens, UniProt P04049)",100
"SGK3 (Homo sapiens, UniProt Q96BR1)",82
"Ribosomal protein S6 kinase alpha-2, C-terminal kinase domain (RPS6KA2, Homo sapiens, UniProt Q15349)",86
"MAP2K2 (Homo sapiens, UniProt P36507)",91
"PRKG1 (Homo sapiens, UniProt Q13976)",88

# Set 3 — technique: von Frey, 0.4 g filament; host: mouse, CFA inflammatory pain
# Structure (SMILES): COc1cc(C(=O)OCCCN2CCCN(CCCOC(=O)c3cc(OC)c(OC)c(OC)c3)CC2)cc(OC)c1OC
conditions,paw withdrawal frequency
"intravenous, dose not given, 24 h post-dose, third injection, day 5",100% and 80% and 90%
"intravenous, dose not given, 3 h post-dose, second injection, day 3",80% and 90%
"subcutaneous, 10 mg/kg, baseline before CFA",0% and 10%
"intravenous, dose not given, 24 h post-dose, second injection, day 3",90% and 100% and 80%

# Set 4 — effect on: binding; mode: competitor; technique: NanoBRET; cell line: HEK293
# Structure (SMILES): Cn1cnc(Cn2ccc3ccc(CNCc4[nH]c5ccccc5c4[C@H]4NC(=O)c5ccc(O)cc54)cc32)c1
# KRAS G12C: GTPase KRas (KRAS, Homo sapiens, UniProt P01116, G12C)
target,conditions,scale,normalized BRET
KRAS G12C,"82.2 nM, 3 h",relative to: vehicle and 20 µM BI compound,114% and 109% and 101%
KRAS G12C,"3.05 nM, 2 h",relative to: vehicle and 20 µM BI compound,91.6% and 95.8% and 96.7% and 101%
KRAS G12C,"6.67 µM, 2 h",relative to: vehicle and 20 µM BI compound,3.65% and 2.4% and 4.42% and 3.12%
KRAS G12C,"6.67 µM, 4 h",relative to: vehicle and 20 µM BI compound,3.53% and 5.74% and 4.55% and 4.07%
KRAS G12C,"82.2 nM, 1 h",relative to: vehicle and 20 µM BI compound,98.3% and 90.8% and 95.1% and 106%
KRAS G12C,"741 nM, 3 h",relative to: vehicle and 20 µM BI compound,49.8% and 49.4% and 54.3% and 43.4%
KRAS G12C,"3.05 nM, 4 h",relative to: vehicle and 20 µM BI compound,99.3% and 82% and 77.5% and 80.5%
KRAS G12C,"741 nM, 0.5 h",relative to: vehicle and 20 µM BI compound,63.2% and 72.7% and 64.2% and 65.3%
"GTPase KRas (KRAS, Homo sapiens, UniProt P01116)",741 nM,,29.8% and 31.1% and 36.5% and 47.7%
